# Published values collected from several papers.
# Parts stem from different laboratories: compare values within a part only.

# Sample 1
# Target: Sal-like protein 4, full length isoform A (SALL4, Homo sapiens, UniProt Q9UJQ4, residues 1-1053)
# UniProt Q9UJQ4, sequence (whole entry, looked up): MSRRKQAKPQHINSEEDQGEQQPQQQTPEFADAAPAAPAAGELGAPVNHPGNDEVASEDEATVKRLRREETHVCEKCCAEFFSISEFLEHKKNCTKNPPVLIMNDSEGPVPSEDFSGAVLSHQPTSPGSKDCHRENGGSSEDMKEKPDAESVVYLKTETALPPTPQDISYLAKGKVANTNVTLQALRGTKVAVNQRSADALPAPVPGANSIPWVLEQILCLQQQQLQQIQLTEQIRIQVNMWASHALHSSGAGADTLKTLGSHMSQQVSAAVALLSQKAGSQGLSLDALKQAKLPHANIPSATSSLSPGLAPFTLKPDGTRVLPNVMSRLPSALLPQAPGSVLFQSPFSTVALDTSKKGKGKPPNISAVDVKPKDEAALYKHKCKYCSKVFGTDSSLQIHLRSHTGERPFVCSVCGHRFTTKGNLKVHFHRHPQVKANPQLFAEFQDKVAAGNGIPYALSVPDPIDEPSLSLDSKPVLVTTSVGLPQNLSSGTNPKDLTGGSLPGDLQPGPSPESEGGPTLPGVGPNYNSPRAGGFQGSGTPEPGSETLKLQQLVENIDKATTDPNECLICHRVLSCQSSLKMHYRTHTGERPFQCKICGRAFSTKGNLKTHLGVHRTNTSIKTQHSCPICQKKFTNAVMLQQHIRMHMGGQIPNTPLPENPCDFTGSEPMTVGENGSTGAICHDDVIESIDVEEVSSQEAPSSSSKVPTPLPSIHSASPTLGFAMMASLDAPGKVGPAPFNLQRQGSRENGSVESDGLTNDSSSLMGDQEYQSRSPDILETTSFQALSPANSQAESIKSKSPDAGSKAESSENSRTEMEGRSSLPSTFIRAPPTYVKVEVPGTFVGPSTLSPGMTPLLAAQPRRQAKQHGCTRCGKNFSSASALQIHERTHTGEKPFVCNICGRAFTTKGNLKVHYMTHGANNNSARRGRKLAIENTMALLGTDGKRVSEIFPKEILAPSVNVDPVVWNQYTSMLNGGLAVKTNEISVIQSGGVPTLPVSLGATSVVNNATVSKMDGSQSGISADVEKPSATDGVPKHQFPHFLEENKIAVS
# Method: universal PBM
# Molecule type: double-stranded DNA, one strand shown
# Sample: in vitro
# Tested at: 600 nM
# Notes: 8-mer, flanks averaged, mean of replicates
# Direction: higher = stronger binding
Strand,E-score
CAATACTC,0.242
CAAAGGGG,-0.134
CTCATGGC,-0.178
ACGCTTAT,0.0724
GCGCATTA,0.0608

# Sample 2
# Target: RING finger protein unkempt homolog, zinc fingers 1-6, GST-SBP tag (UNK, Homo sapiens, UniProt Q9C0B0, residues 30-357)
# UniProt Q9C0B0, sequence (30-357, looked up): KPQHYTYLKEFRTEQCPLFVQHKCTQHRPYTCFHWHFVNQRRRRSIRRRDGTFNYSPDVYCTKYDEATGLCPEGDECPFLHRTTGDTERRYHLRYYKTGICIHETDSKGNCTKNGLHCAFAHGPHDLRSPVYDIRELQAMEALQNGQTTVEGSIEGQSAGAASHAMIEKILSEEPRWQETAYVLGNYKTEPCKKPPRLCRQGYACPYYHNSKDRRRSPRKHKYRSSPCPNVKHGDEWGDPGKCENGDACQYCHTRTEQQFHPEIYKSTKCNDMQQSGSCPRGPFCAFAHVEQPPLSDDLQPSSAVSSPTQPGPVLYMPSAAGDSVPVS
# Method: RNA Bind-n-Seq
# Molecule type: RNA
# Sample: in vitro
# Tested at: not given
# Notes: RNA with constant flanks, human and mouse sites, ends assumed
# Reference: input RNA pool
# Direction: higher = stronger binding
# Constant ends, left off below: GGGAGUUCUACAGUCCGACGAUC … CAACAGAGGAUUGAGCAUCA
Strand,bound/input enrichment
AUUAAGCUUUAUGAAAACUUCAUCAGUGAGUUUGAGCACAGGGUAAACCCUCUGUCCCUGGUAGAAAUAAUUCUCCAUGUGGUUAGACAGAUGACCGAUCCUAAUGUGGCUCUUACUUUU,0.271 ratio
GAUGAUAAUCACACAAAUGUGGCACUUUUAUGUGACCAGAGUUGUACUUCUUCUCCUGAUUAGUAUUCUCCCUGGAACCACUAGCCAAGGGGAAUCAAGACGACAAGAACCUGGGGACUU,0.188 ratio
AUAAGAAAUUUUCUGUGAAAUAUCCUUCCAUUGUUUAAGCUUUUGUUUUGGUCAUCUUUAUUUAGUUUGCAUGAAGUUGAAAAUUAAGGCAUUUUUAAAAAUUUUACUUCAUGCCCAUUU,1.59 ratio
AGUCUCAACACACUGGAACUCUUCGACAACCGGCUGACAACCGUGCCCACGCAGGCCUUUGAGUACCUGUCCAAGCUCCGGGAGCUGUGGCUGCGCAACAACCCCAUCGAAAGCAUCCCA,0.126 ratio
GUGAAUUGGCAGCCUCCCUCCGAAGCCAAUGGCAAAAUUACAGGUUACAUCAUAUAUUACAGUACAGAUGUGAAUGCAGAGAUACAUGACUGGGUUAUUGAGCCUGUUGUGGGAAACAGA,0.224 ratio

# Sample 3
# Target: Histone acetyltransferase KAT6A, winged helix 2, GST fusion (KAT6A, Homo sapiens, UniProt Q92794, residues 85-181)
# Method: protein binding microarray
# Molecule type: double-stranded DNA, one strand shown
# Sample: in vitro
# Tested at: not given
# Notes: 8-mer, flanks averaged, mean of 2 arrays, mostly near background
# Reference: not given
# Direction: higher = stronger binding
# Target sequence (chain): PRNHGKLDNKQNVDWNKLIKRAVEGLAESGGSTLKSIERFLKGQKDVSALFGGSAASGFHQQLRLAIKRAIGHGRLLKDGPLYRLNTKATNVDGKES
Strand,E-score
CCCGCCAC,0.124
AGACTTAC,-0.322
ACCCGCCA,0.165
TACCGGCA,-0.111
CACTATCG,0.0501
CCGCTCGA,0.0895
AAGGCACG,0.147

# Single results of other studies
Substance,target,assay,test system,setting,how to read,quantity,result
"PhoQ, residues 284 288 289 292 302 303 GNNTDL","PhoP, residues 12 14 15 18 19 YHFSH (Escherichia coli, UniProt P23836)","Sort-seq, measured: YFP reporter",E. coli,"PhoQ-PhoP variant library, added: 10 µM Mg2+","reference: high Mg2+ state, higher = stronger signaling",fold induction,11.6

# Repeated from above (sample 3):
Strand,E-score
AGACTTAC,-0.322
ACCCGCCA,0.165
TACCGGCA,-0.111
